Measured values from different studies.
Compare with care: the assays were run in different laboratories. ± gives the spread as reported.

Cc1ccc(NC(=O)c2ccc(CN3CCN(C)CC3)cc2)cc1Nc1nccc(-c2cncc(-c3oncc3C)c2)n1
NMSS score (mild-to-moderate Parkinson's disease patients; oral, 50 mg once daily, day 7, on anti-Parkinson medication; direction not given): 28.3 ± 19.5

PACAP
mRNA level (qRT-PCR, GAPDH-normalised, measured: Bcl-2; APP V717I transgenic mouse, 6 months old, brain; intranasal, dose not given, 3 months; reference: vehicle-treated mice): 125 ± 4.7%

COc1ccc2c(c1)c(CC(=O)O)c(C)n2C(=O)c1ccc(Cl)cc1
cytokine level (multiplex bead immunoassay, measured: IL-15; CD-1 mice, serum; ip, 20 mg/kg, three-injection regimen, together with: LPS 3 mg/kg): 21.1 ± 12 pg/mL

CC[C@H](C)[C@H](NC(=O)[C@H](CCC(N)=O)NC(=O)[C@H](Cc1c[nH]cn1)NC(=O)[C@H](C)NC(=O)[C@H](CC(C)C)NC(=O)[C@H](CCCCN)NC(=O)[C@H](CCC(N)=O)NC(=O)[C@@H](NC(=O)[C@@H](NC(=O)[C@@H]1CSSC[C@H](NC(=O)CNC(=O)[C@H](Cc2ccccc2)NC(=O)[C@H](CO)NC(=O)[C@H](CCCNC(=N)N)NC(=O)[C@H](CC(C)C)NC(=O)CNC(=O)[C@H](CCC(N)=O)NC(=O)[C@H](Cc2ccccc2)NC(=O)[C@H](CC(N)=O)NC(=O)[C@H](CC(N)=O)NC(=O)[C@H](CCSC)NC(=O)[C@H](CO)NC(=O)[C@H](CCC(N)=O)NC(=O)[C@H](CCCNC(=N)N)NC(=O)[C@@H](N)Cc2ccc(O)cc2)C(=O)N[C@@H](CCCNC(=N)N)C(=O)N[C@@H](Cc2ccccc2)C(=O)NCC(=O)N[C@@H]([C@@H](C)O)C(=O)N1)[C@@H](C)O)C(C)C)C(=O)N[C@@H](Cc1ccc(O)cc1)C(=O)N[C@@H](CCC(N)=O)C(=O)N[C@@H](Cc1ccccc1)C(=O)N[C@H](C(=O)N[C@@H](CC(=O)O)C(=O)N[C@@H](CCCCN)C(=O)N[C@@H](CC(=O)O)C(=O)N[C@@H](CCCCN)C(=O)N[C@@H](CC(=O)O)C(=O)N[C@@H](CC(N)=O)C(=O)N[C@H](C(=O)N[C@@H](C)C(=O)N1CCC[C@H]1C(=O)N[C@@H](CCCNC(=N)N)C(=O)N[C@@H](CO)C(=O)N[C@@H](CCCCN)C(=O)N[C@H](C(=O)N[C@@H](CO)C(=O)N1CCC[C@H]1C(=O)N[C@@H](CCC(N)=O)C(=O)NCC(=O)N[C@@H](Cc1ccc(O)cc1)C(N)=O)[C@@H](C)CC)C(C)C)[C@@H](C)O
change in CDAI (patients, biologic-resistant Crohn's disease; intravenous infusion, 15 ng/kg/min, 24 weeks, unit not given, together with: biologic; reference: baseline): -78 ± 26

SIYNFEKL
triple cytokine producers (flow cytometry, measured: CD44hi CD8+ T cells; peptide, OT-I CD8+ T cells, mouse; 1 µg/mL loading, primed 5 days, restimulated 100 ng/mL OVA257, together with: no TGF-β1): 47%

C[C@H]1C[C@H]2CSC(N)=N[C@@]2(c2nc(NC(=O)c3ccc(OC(F)F)cn3)cs2)CO1
change from baseline (measured: CSF Aβ1–42; healthy adults; 125 mg once daily, 14 days, day 15; reference: placebo-adjusted baseline): -84.8%

SIIVFEKL
cytokine-negative cells (flow cytometry, measured: CD44hi CD8+ T cells; peptide, OT-I CD8+ T cells, mouse; dose not given, primed 5 days, TGF-β1 from day 2 onward, together with: 20 ng/mL TGF-β1): 49.5%

CN(C)C(=O)N[C@H]1CC[C@H](CCN2CCN(c3cccc(Cl)c3Cl)CC2)CC1
locomotor activity (open field; Sprague-Dawley rat, ouabain mania model; intraperitoneal, 0.06 mg/kg, 1 h pretreatment, 30 min observation, together with: ouabain i.c.v.): 64.2 ± 3.88 squares crossed
